Measured values collected from several papers.
Protocols differ between the studies behind these lines. ± marks the error that the study gave.

Chains of the proteins cited; added tags and fusions are not shown. Residues count along the entry.
UniProt P53779, 1-422 isoform 2: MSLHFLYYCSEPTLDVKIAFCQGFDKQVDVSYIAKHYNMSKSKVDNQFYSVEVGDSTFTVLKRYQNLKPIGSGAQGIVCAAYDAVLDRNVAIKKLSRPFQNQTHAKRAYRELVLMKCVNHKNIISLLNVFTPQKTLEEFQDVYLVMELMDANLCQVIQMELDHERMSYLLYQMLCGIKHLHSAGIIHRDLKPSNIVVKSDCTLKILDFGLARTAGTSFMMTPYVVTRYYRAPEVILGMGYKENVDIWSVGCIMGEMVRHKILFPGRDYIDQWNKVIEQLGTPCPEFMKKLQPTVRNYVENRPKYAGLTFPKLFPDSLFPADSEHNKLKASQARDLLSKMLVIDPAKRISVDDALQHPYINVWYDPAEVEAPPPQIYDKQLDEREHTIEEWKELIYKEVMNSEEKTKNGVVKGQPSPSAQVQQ

CC(C)Oc1cc(C(=O)N2CCC(N3CCN(C)CC3)CC2)ccc1Nc1ncc2c(n1)N(C1CCCC1)c1ccccc1C(=O)N2C
IC50 (797 NUT midline carcinoma cells; viability, CellTiter-Glo; 3 days): 465 ± 12 nM

C=CC(=O)Nc1ccc(-n2nc3c(=O)[nH]nc(N)c3c2-c2oc3ccc(C)cc3c2C)cc1N(C)CCN(C)C
IC50 (SNU-16 (FGFR2 amplified); cell proliferation): 12.2 ± 3.9 nM

COc1cc2ncc(-c3cccc(NC4CCNC4)n3)n2cc1-c1cnn(C)c1 (racemic)
IC50 (MOLM-14 FLT3 D835Y; cell growth): 30 nM

CCOc1cc(C(C)(C)C)ccc1C1=N[C@H](c2ccc(Cl)cc2)[C@H](c2ccc(Cl)cc2)N1C(=O)N1CCN(CC(=O)NCCOCCOCCOCCNC(=O)CN2CCN(C(=O)N3C(c4ccc(C(C)(C)C)cc4OCC)=N[C@H](c4ccc(Cl)cc4)[C@@H]3c3ccc(Cl)cc3)CC2=O)C(=O)C1
IC50 (HCT-116 p53 knock-out; cell growth, CCK-8): > 50000 nM

O=C(O)CCCN1C(=O)c2ccc3c4c(ccc(c24)C1=O)C(=O)N(CCCC(=O)O)C3=O
IC50 (PC-12; neurite outgrowth; 72 h, added: 500 pM NGF): > 100000 nM

CN(C)C(=O)Cn1cc(-c2ccc(-c3cncc4ccncc34)cc2)cn1
IC50 (OCI-Ly3; cell growth, viability): < 1000 nM

COc1cc([C@@H]2c3cc4c(cc3[C@H](CC(C)C)[C@H]3COC(=O)[C@H]23)OCO4)cc(OC)c1OC
selectivity index (Leishmania; mouse splenocytes; reference: CC50 over amastigote EC50): 1.1

COCC#Cc1cc(-c2nn(-c3nc(C(=O)O)cs3)c(CC3CC3)c2Cc2ccc(S(N)(=O)=O)c(F)c2)ccc1F
IC50 (HEK293T; lactate production; 1 h): 1300 nM

COc1cccc2c1C(=O)N1CCc3c([nH]c4ccccc34)C1N2Cc1ccc(C(=O)NCCCC(=O)NO)cc1 (racemic)
IC50 (MCF7; cell viability, CCK-8): > 10000 nM

CCOC(=O)C1=C(C)NC2=C(C(=O)CC(C)(C)C2)C1c1ccc(OCC(=O)NN=Cc2cccc(C=O)c2)cc1OCC(=O)NN=Cc1cccc(C=O)c1 (centres unmarked)
inhibition zone diameter (Klebsiella pneumoniae; EMCS; concentration not given, 24 h): 3 ± 0.3 mm

CC(C)[C@H](N)c1nc2cc(-c3cnoc3)sc2c(=O)[nH]1
IC50 (COLO 205; cell growth, MTT): > 10000 nM

CC[C@@H](C)[C@H](N)C(=O)N1Cc2ccc(F)cc2C1
IC50 (K562; cell viability, CellTiter-Glo): > 60000 nM

N[C@@H](c1nc2cc(-c3ccncc3F)sc2c(=O)[nH]1)C1CC1
IC50 (COLO 205; cell growth, MTT): 385 ± 19.3 nM

COC(=O)[C@@]1(C)C=C(C(=O)Nc2cccc(C(=O)NC34CC(Nc5nccc(-c6cccnc6)n5)(C3)C4)c2)C(=O)CC1
remaining activity (Mitogen-activated protein kinase 10 (MAPK10, Homo sapiens, UniProt P53779); enzyme activity, inhibitor; 0.0007527 µM): 1.04 fraction of control

CC(C)[C@H](N)c1nc2cc(-c3ccncn3)sc2c(=O)[nH]1
IC50 (COLO 205; cell growth, MTT): 346 ± 10.4 nM

Nc1ccc(Cl)c2cccnc12
IC50 (HUVEC; cell viability, calcein-AM): 3510 ± 1100 nM

COc1ccc(CC(=O)OCc2ccc(-n3cccn3)cc2)cc1F
IC50 (WI-38; cytotoxicity): > 100000 nM

CN1c2ccc(F)cc2C(=O)N2CCc3c([nH]c4ccc(OCc5cccc(C(=O)NO)c5)cc34)C21 (centres unmarked)
IC50 (A549; cell viability, CCK-8): > 20000 nM

C/C=C/c1cc(-c2nn(-c3nc(C(=O)O)cs3)c(CC3CC3)c2Cc2ccc(S(N)(=O)=O)c(F)c2)ccc1F
IC50 (HEK293T; lactate production; 1 h): 700 nM

Nc1ncc(-c2ccc3ncnc(N4CCc5cc(F)c(Cl)cc54)c3c2)cn1
dose-normalised AUC(0-t) (CD1 mouse, plasma; intravenous, 5 mg/kg): 152 mg·h/mL

Cc1cnc(Nc2ccc(N3CCN(C)CC3)cc2)nc1Nc1cccc(NS(=O)(=O)C(C)(C)C)c1
IC50 (MM1.S; cell growth, CellTiter Blue; 72 h): 380 nM

Cc1ccccc1OCCCSCc1nc2ccccc2[nH]1
IC50 (SW620-GFP cells; colony formation, clonogenic stemness): 12800 nM

COC(=O)[C@@H]1C(c2nc3cncnc3[nH]2)=Cc2cc3c(cc2[C@H]1c1cc(OC)c(OC)c(OC)c1)OCO3
selectivity index (Leishmania; mouse splenocytes; reference: CC50 over amastigote EC50): 1.2

C=CC(=O)N1CCC(c2cc(Nc3cc4n(n3)CCOC4)c3ncnn3c2)C1 (single isomer, unassigned)
IC50 (Ramos; calcium flux, FLIPR; 4 h preincubation, added: anti-IgM): > 1000 nM

NS(=O)(=O)c1ccc(Cc2c(-c3ccc(F)c(C#CC4CCCC4)c3)nn(-c3nc(C(=O)O)cs3)c2CC2CC2)cc1F
IC50 (HEK293T; lactate production; 1 h): 500 nM

O=C(O)c1cc(N2C(=O)c3ccc4c5c(ccc(c35)C2=O)C(=O)N(c2ccc(O)c(C(=O)O)c2)C4=O)ccc1O
IC50 (PC-12; neurite outgrowth; 72 h, added: 500 pM NGF): 11100 nM

Cc1ncsc1-c1ccc([C@H](C)NC(=O)[C@@H]2C[C@@H](O)CN2C(=O)[C@@H](NC(=O)CCCCCCC(=O)N2CCN(C[C@]3(C)CCC(c4ccc(Cl)cc4)=C(CN4CCN(c5ccc(C(=O)NS(=O)(=O)c6ccc(N[C@H](CCN7CCOCC7)CSc7ccccc7)c(S(=O)(=O)C(F)(F)F)c6)cc5)CC4)C3)CC2)C(C)(C)C)cc1
mRNA level (item: Cdkn2a; naturally aged mice, kidney; intraperitoneal, 5 mg/kg every 3 days): no effect

NS(=O)(=O)c1ccc(Cc2c(-c3cccc(-c4ccccc4)c3)nn(-c3nc(C(=O)O)cs3)c2C2CC2)c(F)c1
IC50 (HEK293T; lactate production; 1 h): 1200 nM

Nc1c(Cl)ccc2cccnc12
IC50 (HUVEC; cell proliferation, [3H]thymidine incorporation): 1660 ± 60 nM

CC1(C#Cc2cc(-c3nn(-c4nc(C(=O)O)cs4)c(CC4CC4)c3Cc3ccc(S(N)(=O)=O)c(F)c3)ccc2F)COC1
IC50 (HEK293T; lactate production; 1 h): 1800 nM

CC(C)[C@H](N)c1nc2cc(-c3cc(F)ncc3F)sc2c(=O)[nH]1
IC50 (COLO 205; cell growth, MTT): 336 ± 13.4 nM

CC(=NN=c1[nH]c2cc(F)c(F)cc2n1C)c1ccc(F)cn1
IC50 (MDA-MB-453; viability, MTT; 72 h): 17.5 nM

Excerpt of the above:
C/C=C/c1cc(-c2nn(-c3nc(C(=O)O)cs3)c(CC3CC3)c2Cc2ccc(S(N)(=O)=O)c(F)c2)ccc1F
IC50 (HEK293T; lactate production; 1 h): 700 nM

Nc1ncc(-c2ccc3ncnc(N4CCc5cc(F)c(Cl)cc54)c3c2)cn1
dose-normalised AUC(0-t) (CD1 mouse, plasma; intravenous, 5 mg/kg): 152 mg·h/mL

O=C(O)c1cc(N2C(=O)c3ccc4c5c(ccc(c35)C2=O)C(=O)N(c2ccc(O)c(C(=O)O)c2)C4=O)ccc1O
IC50 (PC-12; neurite outgrowth; 72 h, added: 500 pM NGF): 11100 nM

Cc1ncsc1-c1ccc([C@H](C)NC(=O)[C@@H]2C[C@@H](O)CN2C(=O)[C@@H](NC(=O)CCCCCCC(=O)N2CCN(C[C@]3(C)CCC(c4ccc(Cl)cc4)=C(CN4CCN(c5ccc(C(=O)NS(=O)(=O)c6ccc(N[C@H](CCN7CCOCC7)CSc7ccccc7)c(S(=O)(=O)C(F)(F)F)c6)cc5)CC4)C3)CC2)C(C)(C)C)cc1
mRNA level (item: Cdkn2a; naturally aged mice, kidney; intraperitoneal, 5 mg/kg every 3 days): no effect

CC[C@@H](C)[C@H](N)C(=O)N1Cc2ccc(F)cc2C1
IC50 (K562; cell viability, CellTiter-Glo): > 60000 nM
